Measurements from different studies.
Compare with care: the assays were run in different laboratories. Several values in a cell are separate wells, animals, samples, runs or records. ± marks the error that the study gave.
rep main protease: Replicase polyprotein 1ab, main protease (rep, Severe acute respiratory syndrome coronavirus 2, UniProt P0DTD1)
rep papain-like protease: Replicase polyprotein 1ab, papain-like protease (rep, Severe acute respiratory syndrome coronavirus 2, UniProt P0DTD1)
OPRM1: Mu-type opioid receptor (OPRM1, Homo sapiens, UniProt P35372)
UniProt P35372, sequence (whole entry, looked up): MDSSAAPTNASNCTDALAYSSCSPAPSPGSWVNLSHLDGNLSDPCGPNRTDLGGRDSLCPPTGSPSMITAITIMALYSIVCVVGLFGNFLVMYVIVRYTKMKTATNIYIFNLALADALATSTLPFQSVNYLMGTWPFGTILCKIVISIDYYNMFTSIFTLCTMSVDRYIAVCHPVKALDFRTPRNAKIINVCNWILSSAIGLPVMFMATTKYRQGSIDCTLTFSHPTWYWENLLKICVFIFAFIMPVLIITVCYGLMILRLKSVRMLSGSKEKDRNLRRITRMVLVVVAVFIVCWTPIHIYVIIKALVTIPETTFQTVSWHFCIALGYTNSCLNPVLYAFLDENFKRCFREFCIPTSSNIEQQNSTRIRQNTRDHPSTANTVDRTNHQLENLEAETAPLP

Structure (SMILES)	tested on	test	system	conditions	how to read	quantity	result
CCC1c2ccsc2CCN1C(=O)c1nnn(C2CCNCC2)c1C (racemic)	rep main protease	enzyme activity, inhibitor				IC50	> 100 µM
Cc1ccc(OCCN(C)C)cc1C(=O)N[C@H](C)c1cc(-c2cnn(C)c2)cc(-c2cncs2)c1	rep papain-like protease	enzyme activity, inhibitor, FRET				IC50	0.108 µM
COc1cccc2[nH]c(C(=O)NC(CC(C)C)C(=O)NC(CC3CCCNC3=O)C(=O)COC(=O)c3c(C)cc(C)nc3C)cc12 (centres unmarked)	rep main protease	enzyme activity, inhibitor				IC50	0.019 µM
CCCCCCCCCCCCCCCC(=O)N[C@@H](CCC(=O)NCCCC[C@H](NC(=O)[C@H](CC(=O)O)NC(=O)[C@H](CO)NC(=O)[C@@H](NC(=O)[C@H](Cc1ccccc1)NC(=O)[C@@H](NC(=O)CNC(=O)[C@H](CCC(N)=O)NC(=O)[C@H](C)NC(=O)[C@@H](Cc1ccc(O)cc1)NC(C)=O)[C@@H](C)O)[C@@H](C)O)C(=O)N[C@@H](CO)C(=O)N[C@@H](CCCCN)C(=O)N[C@@H](Cc1ccc(O)cc1)C(=O)N[C@@H](CC(C)C)C(=O)N[C@@H](CC(=O)O)C(=O)N[C@@H](CCC(=O)O)C(=O)N[C@@H](CCCNC(=N)N)C(=O)N[C@@H](C)C(=O)N[C@@H](C)C(=O)N[C@@H](CCC(N)=O)C(=O)N[C@@H](CC(=O)O)C(=O)N[C@@H](Cc1ccccc1)C(=O)N[C@H](C(=O)N[C@@H](CCC(N)=O)C(=O)N[C@@H](Cc1c[nH]c2ccccc12)C(=O)N[C@@H](CC(C)C)C(=O)N[C@@H](CC(C)C)C(=O)N[C@@H](CCC(=O)O)C(=O)NCC(=O)NCC(=O)N1CCC[C@H]1C(=O)N[C@@H](CO)C(=O)N[C@@H](CO)C(=O)NCC(=O)N[C@@H](C)C(=O)N1CCC[C@H]1C(=O)N1CCC[C@H]1C(=O)N1CCC[C@H]1C(=O)N[C@@H](CO)C(N)=O)C(C)C)C(=O)O			cynomolgus monkey, plasma	intravenous, 0.0031 mg/kg		AUC(0-inf)	365 to 505 ng·h/mL
CC(C)C[C@H](NC(=O)[C@H](CO)NC(=O)[C@H](CCCCN)NC(=O)[C@H](CC(C)C)NC(=O)[C@H](C)NC(=O)[C@H](CCCCN)NC(=O)[C@H](CCC(=O)O)NC(=O)CNC(=O)[C@H](CC(C)C)NC(=O)[C@H](CC(N)=O)NC(=O)[C@@H]1CCCN1C(=O)[C@H](CC(C)C)NC(=O)[C@H](Cc1ccccc1)NC(=O)CNC(=O)[C@H](NC(=O)[C@@H](N)Cc1ccc(O)cc1)[C@H](C)O)C(N)=O	OPRM1	radioligand displacement	CHO membranes	60 min, pH 7.5, 25 °C, with: 0.25 nM [3H]DAMGO		Ki	0.013 ± 0.0012 µM
CCCCCC/C=C\CCCCCCC[C@@H](O)Cc1cc(O)cc(O)c1	rep main protease	enzyme activity, inhibitor		with preincubation		IC50	> 100 µM
CNC(=O)C[C@H](Cc1ccncc1)NC(=O)[C@@H](Cc1cccc(Br)c1)NC(=O)[C@@H](N)Cc1ccsc1	rep main protease	enzyme activity, inhibitor, fluorescence				IC50	4 µM
COC(=O)C(NC(=O)CC(O)C(N)Cc1ccccc1)C(C)C (centres unmarked)	rep papain-like protease	enzyme activity, inhibitor, FRET				IC50	1.46 µM
CCCOc1cc(Cl)cc(-c2cc(-c3ccccc3C#N)cn(-c3cncnc3)c2=O)c1	rep main protease	enzyme activity, inhibitor	SARS-CoV-2	Mpro, compound fluorescence interfered		IC50	1 to 10 µM
CC(C)[C@H](NC(=O)[C@H]1CCC[C@@H]1NC(=O)[C@H](CC(N)=O)NC(=O)[C@H](CCCNC(=N)N)NC(=O)[C@H]1CCC[C@@H]1N)C(=O)N[C@@H](Cc1ccccc1)C(=O)N[C@H]1CCC[C@@H]1C(=O)N[C@@H](Cc1ccccc1)C(=O)N[C@@H](Cc1ccc(O)cc1)C(=O)N[C@H]1CCC[C@@H]1C(=O)N[C@H](C(=O)N[C@@H](CC(=O)O)C(N)=O)[C@@H](C)O	rep main protease	enzyme activity, inhibitor				IC50	5.2 µM
CC(C)C[C@H](NC(=O)c1cc2c(F)ccc(F)c2[nH]1)C(=S)N[C@@H](C[C@@H]1CCNC1=O)C(=O)c1nc2cc(F)ccc2s1	rep main protease	enzyme activity, inhibitor				IC50	0.67 µM
CC[C@H](C)[C@H](N)C(=O)N[C@@H](CC(N)=O)C(=O)N[C@@H](CC(N)=O)C(=O)N[C@H](C(=O)N1C[C@@H](n2cc([C]34[CH]5[CH]6[CH]7[CH]3[Fe]6754389%10[CH]4[CH]3[CH]8[CH]9[CH]4%10)nn2)C[C@H]1C(=O)N[C@@H](Cc1cn(C)c2ccccc12)C(N)=O)[C@@H](C)CC (some centres unmarked)	Envelope glycoprotein gp160, gp120 (env, Human immunodeficiency virus type 1 group M subtype B, UniProt P35961, S370A)	ITC		gp120 S375A mutant		−TΔS	0.4 ± 0.1 kcal/mol
CNC(=O)C[C@H](Cc1ccc(F)cc1)NC(=O)[C@@H](Cc1ccc(Cl)cc1Cl)NC(=O)[C@H](N)Cc1ccccc1[N+](=O)[O-]	rep main protease	enzyme activity, inhibitor, fluorescence				IC50	4 µM
CC(C)(C)NC(=O)C(c1cccnc1)N(C(=O)C(F)Cl)c1ccc(C(C)(C)C)cc1 (single isomer, unassigned)	rep main protease	enzyme activity, inhibitor				IC50	2.7 µM
C[C@](C(=O)NC1CCC(F)(F)CC1)(c1cncnc1)N(C(=O)[C@H](F)Cl)c1ccc(OC(F)(F)F)cc1	rep main protease	enzyme activity, inhibitor				IC50	0.016 µM
O=C1CC(c2ccccc2)Oc2cc(O[C@@H]3O[C@H](CO)[C@@H](O)[C@H](O)[C@H]3O)ccc21 (some centres unmarked)	Replicase polyprotein 1ab, nsp13 helicase (rep, Severe acute respiratory syndrome coronavirus 2, UniProt P0DTD1)	helicase unwinding activity				IC50	2.88 µM and 2.8 µM
CCc1ccccc1NC(=S)N/N=C/c1ccccc1O	rep main protease	enzyme activity, inhibitor, FRET				IC50	33.4 µM
CCC1c2ccsc2CCN1C(=O)c1cn(C2CCNCC2)nn1 (racemic)	rep main protease	enzyme activity, inhibitor				IC50	> 100 µM
CC(C)C[C@H](NC(=O)[C@H](CO)NC(=O)[C@H](CCCCN)NC(=O)[C@H](CC(C)C)NC(=O)C(C)(C)NC(=O)[C@H](CCCCN)NC(=O)[C@H](CCC(=O)O)NC(=O)C(C)(C)NC(=O)[C@H](CC(C)C)NC(=O)[C@H](CC(N)=O)NC(=O)[C@@H]1CCCN1C(=O)[C@H](CC(C)C)NC(=O)[C@H](Cc1ccccc1)NC(=O)CNC(=O)[C@H](NC(=O)[C@@H](N)Cc1ccc(O)cc1)[C@H](C)O)C(N)=O	OPRM1	radioligand displacement	CHO membranes	60 min, pH 7.5, 25 °C, with: 0.25 nM [3H]DAMGO		Ki	0.029 ± 0.0031 µM
CCCCCCCCCCCCCCCC(=O)N[C@@H](CCC(=O)NCCOCCOCCC(=O)NCCOCCOCCC(=O)NCCCC[C@H](NC(=O)[C@H](CC(=O)O)NC(=O)[C@H](CC(C)C)NC(=O)[C@H](Cc1ccc(O)cc1)NC(=O)[C@H](CCCCN)NC(=O)[C@H](CO)NC(=O)[C@H](Cc1ccc(O)cc1)NC(=O)[C@H](CC(=O)O)NC(=O)[C@H](CO)NC(=O)[C@@H](NC(=O)[C@H](Cc1ccccc1)NC(=O)[C@@H](NC(=O)CNC(=O)[C@H](CCC(N)=O)NC(=O)[C@@H](CO)NC(=O)[C@@H](N)Cc1c[nH]cn1)[C@@H](C)O)[C@@H](C)O)C(=O)N[C@@H](CCCNC(=N)N)C(=O)N[C@@H](CCCNC(=N)N)C(=O)N[C@@H](C)C(=O)N[C@@H](CCC(N)=O)C(=O)N[C@@H](CC(=O)O)C(=O)N[C@@H](Cc1ccccc1)C(=O)N[C@H](C(=O)N[C@@H](CCC(N)=O)C(=O)N[C@@H](Cc1c[nH]c2ccccc12)C(=O)N[C@@H](CC(C)C)C(=O)N[C@@H](CC(C)C)C(=O)N[C@@H](CC(N)=O)C(=O)N[C@H](C(=O)NCC(=O)NCC(=O)N1CCC[C@H]1C(=O)N[C@@H](CO)C(=O)N[C@@H](CO)C(=O)NCC(=O)N[C@@H](C)C(=O)N1CCC[C@H]1C(=O)N1CCC[C@H]1C(=O)N1CCC[C@H]1C(=O)N[C@@H](CO)C(N)=O)[C@@H](C)O)C(C)C)C(=O)O			rhesus monkey, both sexes	subcutaneous, 20 µg/kg, multiple doses, day 1		Tmax	2 h
CCOC(=O)Cn1[se]c2ccccc2c1=O	rep main protease	enzyme activity, inhibitor				IC50	0.201 µM
Cc1oc2nc1C(=O)N[C@](C)(C(=O)O)c1nc(c(C)o1)C(=O)N[C@](C)(C(=O)O)c1nc(c(C)o1)C(=O)N[C@]2(C)C(=O)O	SARS-CoV-2		Vero E6, NRC-03-nhCoV		relative to: CC50 over IC50	selectivity index	39.1
CC[C@H](C)[C@H](NC(=O)[C@H](CO)NC(=O)[C@H](Cc1ccc(O)cc1)NC(=O)[C@H](CC(=O)O)NC(=O)[C@H](CO)NC(=O)[C@@H](NC(=O)[C@H](Cc1ccccc1)NC(=O)[C@@H](NC(=O)CNC(=O)[C@H](CCC(=O)O)NC(=O)[C@@H](C)NC(=O)[C@@H](N)Cc1ccc(O)cc1)[C@@H](C)O)[C@@H](C)CC)C(=O)N[C@@H](C)C(=O)N[C@@H](CCSC)C(=O)N[C@@H](CC(=O)O)C(=O)N[C@@H](CCCCN)C(=O)N[C@H](C(=O)N[C@@H](Cc1c[nH]cn1)C(=O)N[C@@H](CCC(N)=O)C(=O)N[C@@H](CCC(N)=O)C(=O)N[C@@H](CC(=O)O)C(=O)N[C@@H](Cc1ccccc1)C(=O)N[C@H](C(=O)N[C@@H](CC(N)=O)C(=O)N[C@@H](Cc1c[nH]c2ccccc12)C(=O)N[C@@H](CC(C)C)C(=O)N[C@@H](CC(C)C)C(=O)N[C@@H](C)C(=O)N[C@@H](CCC(N)=O)C(=O)N[C@@H](CCCCN)C(=O)N1CCC[C@H]1C(=O)N[C@@H](CO)C(=O)N[C@@H](CO)C(=O)NCC(=O)N[C@@H](C)C(=O)N1CCC[C@H]1C(=O)N1CCC[C@H]1C(=O)N1CCC[C@H]1C(=O)N[C@@H](CO)C(N)=O)C(C)C)[C@@H](C)CC			HF-STZ diabetic mouse, plasma	continuous infusion, 100 nmol/kg/day, 4 weeks		IL-6	25.6 ± 7.6 pg/mL

A few entries again:
Structure (SMILES)	tested on	test	system	conditions	how to read	quantity	result
C[C@](C(=O)NC1CCC(F)(F)CC1)(c1cncnc1)N(C(=O)[C@H](F)Cl)c1ccc(OC(F)(F)F)cc1	rep main protease	enzyme activity, inhibitor				IC50	0.016 µM
O=C1CC(c2ccccc2)Oc2cc(O[C@@H]3O[C@H](CO)[C@@H](O)[C@H](O)[C@H]3O)ccc21 (some centres unmarked)	Replicase polyprotein 1ab, nsp13 helicase (rep, Severe acute respiratory syndrome coronavirus 2, UniProt P0DTD1)	helicase unwinding activity				IC50	2.88 µM and 2.8 µM
